Measurements of several laboratories.
Organism: Staphylococcus simulans
Strain: 22

The MIC of `CC[C@H](C)[C@H](NC(=O)[C@@H](CCC(=O)O)NC(=O)[C@H](CC(C)C)NC(=O)c1cccc(C(=O)O)n1)C(=O)N[C@H]1CCCCNC(=O)[C@H](CC(N)=O)NC(=O)[C@@H](CC(=O)O)NC(=O)[C@H](Cc2c[nH]cn2)NC(=O)[C@@H](Cc2ccccc2)NC(=O)[C@H]([C@@H](C)CC)NC(=O)[C@@H](CCCN)NC1=O` is reported as > 64 µg/mL (18 h, 37 °C, 0.3 mM ZnSO4 LB).
The MIC of `CC(C)CCCCCCCCC/C=C/C(=O)N[C@@H](CC(=O)O)C(=O)N[C@H]1CNC(=O)[C@@H]2CCCN2C(=O)[C@H](C(C)C)NC(=O)[C@@H](CN)NC(=O)CNC(=O)[C@H](CC(=O)O)NC(=O)CNC(=O)[C@H](CC(=O)O)NC(=O)[C@H](CC(=O)O)NC(=O)[C@H]2CCCCN2C1=O` is reported as 8 µg/mL (broth microdilution; Mueller-Hinton broth, Mg2+ 10 mg/L; 16 h, 30 °C, together with: Ca2+ 2.5 mM).
With `C#CCOc1ccc(CN[C@@]2(C)C[C@H](O[C@H]3[C@H](Oc4c5cc6cc4Oc4ccc(cc4Cl)[C@@H](O)[C@@H](NC(=O)[C@@H](CC(C)C)NC)C(=O)N[C@@H](CC(N)=O)C(=O)N[C@H]6C(=O)N[C@H]4C(=O)N[C@H](C(=O)N[C@H](C(=O)NCC(N)=O)c6cc(O)cc(O)c6-c6cc4ccc6O)[C@H](O)c4ccc(c(Cl)c4)O5)O[C@H](CO)[C@@H](O)[C@@H]3O)O[C@@H](C)[C@H]2O)cc1OC` the MIC was 0.149 µM (broth microdilution; cation-adjusted Mueller-Hinton broth).
`Cc1ccc2[nH]c3c(c2c1)CCCC3NCCc1ccc(O)cc1` (stereo not shown) gave an MIC of 16 µg/mL (broth microdilution).
`CN[C@H](CC(C)C)C(=O)N[C@H]1C(=O)N[C@@H](CC(N)=O)C(=O)N[C@H]2C(=O)N[C@H]3C(=O)N[C@H](C(=O)N[C@H](C(=O)NCC(N)=O)c4cc(O)cc(O)c4-c4cc3ccc4O)[C@H](O)c3ccc(c(Cl)c3)Oc3cc2cc(c3O[C@@H]2O[C@H](CO)[C@@H](O)[C@H](O)[C@H]2O[C@H]2C[C@](C)(NCc3ccc(OCc4cn(CC(=O)N[C@H](C(=O)N[C@@H](CCN)C(=O)N[C@H]5CCNC(=O)[C@H]([C@@H](C)O)NC(=O)[C@H](CCN)NC(=O)[C@H](CCN)NC(=O)[C@H](CC(C)C)NC(=O)[C@@H](CC(C)C)NC(=O)[C@H](CCN)NC5=O)[C@@H](C)O)nn4)c(OC)c3)[C@H](O)[C@H](C)O2)Oc2ccc(cc2Cl)[C@H]1O` gave an MIC of ≤ 0.003 µM (broth microdilution; cation-adjusted Mueller-Hinton broth).
`CC[C@H](C)[C@H](NC(=O)[C@@H](CCC(=O)O)NC(=O)[C@H](CC(C)C)NC(=O)c1cccc(-c2ccccn2)n1)C(=O)N[C@H]1CCCCNC(=O)[C@H](CC(N)=O)NC(=O)[C@@H](CC(=O)O)NC(=O)[C@H](Cc2c[nH]cn2)NC(=O)[C@@H](Cc2ccccc2)NC(=O)[C@H]([C@@H](C)CC)NC(=O)[C@@H](CCCN)NC1=O` has an MIC of > 64 µg/mL (18 h, 37 °C, 0.3 mM ZnSO4 LB).
`Cc1ccc2[nH]c3c(c2c1)CCCC3NCCc1ccc(Br)cc1` (stereo not shown) gave an MIC of 4 µg/mL (broth microdilution).
`CN[C@H](CC(C)C)C(=O)N[C@H]1C(=O)N[C@@H](CC(N)=O)C(=O)N[C@H]2C(=O)N[C@H]3C(=O)N[C@H](C(=O)N[C@H](C(=O)O)c4cc(O)cc(O)c4-c4cc3ccc4O)[C@H](O)c3ccc(c(Cl)c3)Oc3cc2cc(c3O[C@@H]2O[C@H](CO)[C@@H](O)[C@H](O)[C@H]2O[C@H]2C[C@](C)(NCc3ccc(OCc4cn(CC(=O)N[C@H](C(=O)N[C@@H](CCN)C(=O)N[C@H]5CCNC(=O)[C@H]([C@@H](C)O)NC(=O)[C@H](CCN)NC(=O)[C@H](CCN)NC(=O)[C@H](CC(C)C)NC(=O)[C@@H](CC(C)C)NC(=O)[C@H](CCN)NC5=O)[C@@H](C)O)nn4)c(OC)c3)[C@H](O)[C@H](C)O2)Oc2ccc(cc2Cl)[C@H]1O` has an MIC of 0.012 µM (broth microdilution; cation-adjusted Mueller-Hinton broth).
With `CC[C@H](C)[C@H](N)C(=O)N[C@@H](C)C(=O)N[C@@H](CC(C)C)C(=O)N[C@H](CCC(=O)O)C(=O)N[C@H](C(=O)N[C@H]1CCCCNC(=O)[C@H](CC(N)=O)NC(=O)[C@@H](CC(=O)O)NC(=O)[C@H](Cc2c[nH]cn2)NC(=O)[C@@H](Cc2ccccc2)NC(=O)[C@H]([C@@H](C)CC)NC(=O)[C@@H](CCCN)NC1=O)[C@@H](C)CC` the MIC was > 64 µg/mL (18 h, 37 °C, 0.3 mM ZnSO4 LB).
The MIC of `CC(C)CCCCCCCCC/C=C/C(=O)N[C@@H](CC(N)=O)C(=O)N[C@H]1CNC(=O)[C@@H]2CCCN2C(=O)[C@H](C(C)C)NC(=O)[C@@H](CN)NC(=O)CNC(=O)[C@H](CC(=O)O)NC(=O)CNC(=O)[C@H](CC(=O)O)NC(=O)[C@H](CC(=O)O)NC(=O)[C@H]2CCCCN2C1=O` is reported as 4 µg/mL (broth microdilution; Mueller-Hinton broth, Mg2+ 10 mg/L; 16 h, 30 °C, together with: Ca2+ 2.5 mM).

For quick reference, copied from above:
The MIC of `CC(C)CCCCCCCCC/C=C/C(=O)N[C@@H](CC(N)=O)C(=O)N[C@H]1CNC(=O)[C@@H]2CCCN2C(=O)[C@H](C(C)C)NC(=O)[C@@H](CN)NC(=O)CNC(=O)[C@H](CC(=O)O)NC(=O)CNC(=O)[C@H](CC(=O)O)NC(=O)[C@H](CC(=O)O)NC(=O)[C@H]2CCCCN2C1=O` is reported as 4 µg/mL (broth microdilution; Mueller-Hinton broth, Mg2+ 10 mg/L; 16 h, 30 °C, together with: Ca2+ 2.5 mM).
